Measured values gathered from unrelated publications.
± gives the spread as reported.

Structure (SMILES) | test system | conditions | tissue uptake
Cc1cc(-c2ccc(NC(=O)[C@H](CCCCNC(=O)CCOCCOCCC(=O)N[C@H](Cc3ccccc3)C(=O)N[C@H]3CSSC[C@@H](C(=O)N[C@H](C(=O)O)[C@@H](C)O)NC(=O)[C@H]([C@@H](C)O)NC(=O)[C@H](CCCCN)NC(=O)[C@@H](Cc4c[nH]c5ccccc45)NC(=O)[C@H](Cc4ccc(O)cc4)NC3=O)NC(=O)CN3CCN(CC(=O)O)CCN(CC(=O)O)CCN(CC(=O)O)CC3)c(C)c2)ccc1N=Nc1ccc2c(S(=O)(=O)O)cc(S(=O)(=O)O)c(N)c2c1O [lutetium-177 labelled] | BALB/c nude mice, male, AR-42J tumour, spleen | intravenous, 1.48 MBq | 5.56 ± 1.14 %ID/g
CC(C)C[C@H](NC(=O)CN1CCN(CC(=O)O)CCN(CC(=O)O)CC1)C(=O)N[C@@H](CC(C)C)C(=O)N[C@@H](CC(C)C)C(=O)N[C@@H](CC(C)C)C(=O)N[C@@H](CCCNC(=N)N)C(=O)N[C@H](C(=O)N[C@@H](CCCCN)C(=O)N[C@@H](CCCNC(=N)N)C(N)=O)C(C)C [copper-64 labelled] | male CD1 mice, bone | intravenous, 15 min | 2.65 ± 0.09 %ID/g
N=C(N)NCCC[C@@H]1NC(=O)[C@H](CCCCNC(=O)CC[C@H](NC(=O)CC[C@H](NC(=O)CN2CCN(CC(=O)O)CCN(CC(=O)O)CCN(CC(=O)O)CC2)C(=O)N[C@@H](CCC(=O)NCCCC[C@@H]2NC(=O)[C@@H](Cc3ccccc3)NC(=O)[C@H](CC(=O)O)NC(=O)CNC(=O)[C@H](CCCNC(=N)N)NC2=O)C(=O)NCCCC[C@@H]2NC(=O)[C@@H](Cc3ccccc3)NC(=O)[C@H](CC(=O)O)NC(=O)CNC(=O)[C@H](CCCNC(=N)N)NC2=O)C(=O)NCCCC[C@@H]2NC(=O)[C@@H](Cc3ccccc3)NC(=O)[C@H](CC(=O)O)NC(=O)CNC(=O)[C@H](CCCNC(=N)N)NC2=O)NC(=O)[C@@H](Cc2ccccc2)NC(=O)[C@H](CC(=O)O)NC(=O)CNC1=O [indium-111 labelled] | female athymic nu/nu mice, lungs | intravenous, 1 h | 3.43 ± 0.54 %ID/g
CCCC[C@H](NC(=O)COCCOCCNC(=O)CN1CCN(CC(=O)O)CCN(CC(=O)O)CC1)C(=O)N[C@H]1CC(=O)NCCCC[C@@H](C(N)=O)NC(=O)[C@H](Cc2c[nH]c3ccccc23)NC(=O)[C@H](CCCNC(=N)N)NC(=O)[C@@H](Cc2ccccc2)NC(=O)[C@H](Cc2c[nH]cn2)NC1=O [copper-64 labelled] | C57 mice, bone | intravenous, 0.37 MBq, 4 h | 0.19 ± 0.13 %ID/g
CC(C)C[C@@H](NC(=O)[C@@H](CCC(=O)O)NC(=O)[C@@H](CC(C)C)NC(=O)[C@@H](CC(C)C)NC(=O)[C@@H](CC(C)C)NC(=O)[C@H](NC(=O)[C@@H](CCC(=O)O)NC(=O)[C@H](NC(=O)[C@H]1CCCN1C(=O)[C@@H](Cc1ccccc1)NC(=O)[C@@H](CC(C)C)NC(=O)[C@@H](Cc1c[nH]c2ccccc12)NC(=O)[C@@H](CCC(=O)O)NC(=O)[C@@H](CC(C)C)NC(=O)[C@@H](Cc1ccc(O)cc1)NC(=O)[C@@H](CCCNC(=N)N)NC(=O)[C@@H](C)NC(=O)[C@@H](Cc1c[nH]c2ccccc12)NC(=O)[C@H]1CCCN1C(=O)[C@@H](CC(N)=O)NC(=O)[C@@H](CCC(N)=O)NC(=O)[C@@H](CCC(=O)O)NC(=O)[C@@H](CCC(=O)O)NC(=O)[C@@H](CSC1CC(=O)N(CCNC(=O)CN2CCN(CC(=O)O)CCN(CC(=O)O)CC2)C1=O)NC(=O)[C@@H](C)N)[C@H](C)O)[C@H](C)O)C(=O)O (stereo partly shown) [fluorine-18 labelled] | BALB/c mice, female, 4T1 orthotopic tumour, small intestine | intravenous, 4 h | 0.91 ± 0.03 %ID/g
CCCC[C@H](NC(=O)CNC(=O)CNC(=O)CN1CCN(CC(=O)O)CCN(CC(=O)O)CC1)C(=O)N[C@H]1CC(=O)NCCCC[C@@H](C(N)=O)NC(=O)[C@H](Cc2c[nH]c3ccccc23)NC(=O)[C@H](CCCNC(=N)N)NC(=O)[C@@H](Cc2ccccc2)NC(=O)[C@H](Cc2c[nH]cn2)NC1=O [technetium-99m labelled] | C57 mice, intestines | intravenous, 0.037 MBq, 24 h | 0.4 ± 0.4 %ID
N=C(N)NCCC[C@@H]1NC(=O)[C@H](CCCCNC(=O)CNC(=O)CNC(=O)CNC(=O)CC[C@H](NC(=O)CNC(=O)CNC(=O)CNC(=O)CN2CCN(CC(=O)O)CCN(CC(=O)O)CCN(CC(=O)O)CC2)C(=O)NCC(=O)NCC(=O)NCC(=O)NCCCC[C@@H]2NC(=O)[C@@H](Cc3ccccc3)NC(=O)[C@H](CC(=O)O)NC(=O)CNC(=O)[C@H](CCCNC(=N)N)NC2=O)NC(=O)[C@@H](Cc2ccccc2)NC(=O)[C@H](CC(=O)O)NC(=O)CNC1=O [indium-111 labelled] | female athymic nu/nu mice, heart | intravenous, 72 h | 0.15 ± 0.04 %ID/g
CN1C(=O)[C@@H](Cc2ccc(O)cc2)NC(=O)CNC(=O)[C@H](Cc2ccc3ccccc3c2)NC(=O)[C@H](CCCNC(=N)N)NC(=O)[C@H]1CCCNC(=O)c1ccc(CNC(=O)CN2CCN(CC(=O)O)CCN(CC(=O)O)CCN(CC(=O)O)CC2)cc1 [gallium-68 labelled] | SCID mice, lymphoma xenograft, heart | intravenous, 1 h | 1.2 ± 0.1 %ID/g
CC(C)C[C@H](NC(=O)[C@H](Cc1ccc(O)cc1)NC(=O)[C@@H](CCCNC(=N)N)NC(=O)[C@@H](CO)NC(=O)[C@H](Cc1ccccc1)NC(=O)[C@H](CC1CCCCC1)NC(=O)[C@H](CC(=O)O)NC(=O)CN1CCCN2CCN(CCCN(CC(=O)O)CC2)CC1)C(=O)N[C@@H](Cc1c[nH]c2ccccc12)C(=O)N[C@@H](CO)C(=O)O [copper-64 labelled] | female NMRI nude mice, lung | 1 h p.i. | 5.5 ± 1.4 %ID/g
CC(C)C[C@@H](NC(=O)[C@@H](CC(C)C)NC(=O)[C@@H](CC(=O)O)NC(=O)[C@@H](CC(C)C)NC(=O)[C@@H](CC(C)C)NC(=O)[C@@H](CC(C)C)NC(=O)[C@H](NC(=O)[C@@H](CC(=O)O)NC(=O)[C@H](NC(=O)[C@H]1CCCN1C(=O)[C@@H](Cc1ccccc1)NC(=O)[C@@H](CC(C)C)NC(=O)[C@@H](CC(C)C)NC(=O)[C@@H](CC(=O)O)NC(=O)[C@@H](CC(C)C)NC(=O)[C@@H](Cc1ccc(O)cc1)NC(=O)[C@@H](C)NC(=O)[C@@H](CCCNC(=N)N)NC(=O)[C@@H](Cc1c[nH]c2ccccc12)NC(=O)[C@H]1CCCN1C(=O)[C@@H](CC(N)=O)NC(=O)[C@@H](CCC(N)=O)NC(=O)[C@@H](CC(=O)O)NC(=O)[C@@H](CC(=O)O)NC(=O)[C@@H](CS)NC(=O)[C@@H](C)NC(=S)Nc1ccc(CC2CN(CC(=O)O)CCN(CC(=O)O)CCN2CC(=O)O)cc1)[C@H](C)O)[C@H](C)O)C(=O)N[C@H](Cc1c[nH]c2ccccc12)C(=O)O (stereo partly shown) [copper-64 labelled] | BALB/c mice, female, 4T1 orthotopic tumour, small intestine | intravenous, 4 h | 0.32 ± 0.042 %ID/g
CSCC[C@H](NC(=O)[C@H](CC(C)C)NC(=O)[C@H](Cc1c[nH]cn1)NC(=O)CNC(=O)[C@@H](NC(=O)[C@H](C)NC(=O)[C@H](Cc1c[nH]c2ccccc12)NC(=O)[C@H](CCC(N)=O)NC(=O)CCOCCOCCOCCOCCNC(=O)CN1CCN(CC(=O)O)CCN(CC(=O)O)CCN(CC(=O)O)CC1)C(C)C)C(N)=O [indium-111 labelled] | male Swiss nu/nu mice, PC-3 tumour, kidney | intravenous, 10 pmol, 24 h | 0.7 ± 0.4 %ID/g
N=C(N)NCCC[C@@H]1NC(=O)[C@H](CCCCNC(=O)CNC(=O)CNC(=O)CNC(=O)CC[C@H](NC(=O)CNC(=O)CNC(=O)CNC(=O)CC[C@H](NC(=O)CN2CCN(CC(=O)O)CCN(CC(=O)O)CCN(CC(=O)O)CC2)C(=O)NCC(=O)NCC(=O)NCC(=O)N[C@@H](CCC(=O)NCC(=O)NCC(=O)NCC(=O)NCCCC[C@@H]2NC(=O)[C@@H](Cc3ccccc3)NC(=O)[C@H](CC(=O)O)NC(=O)CNC(=O)[C@H](CCCNC(=N)N)NC2=O)C(=O)NCC(=O)NCC(=O)NCC(=O)NCCCC[C@@H]2NC(=O)[C@@H](Cc3ccccc3)NC(=O)[C@H](CC(=O)O)NC(=O)CNC(=O)[C@H](CCCNC(=N)N)NC2=O)C(=O)NCC(=O)NCC(=O)NCC(=O)NCCCC[C@@H]2NC(=O)[C@@H](Cc3ccccc3)NC(=O)[C@H](CC(=O)O)NC(=O)CNC(=O)[C@H](CCCNC(=N)N)NC2=O)NC(=O)[C@@H](Cc2ccccc2)NC(=O)[C@H](CC(=O)O)NC(=O)CNC1=O [indium-111 labelled] | female athymic nu/nu mice, intestine | intravenous, 4 h | 8.79 ± 2.98 %ID/g
CCCC[C@H](NC(=O)CCCCCCCNC(=O)CN1CCN(CC(=O)O)CCN(CC(=O)O)CC1)C(=O)N[C@H]1CC(=O)NCCCC[C@@H](C(N)=O)NC(=O)[C@H](Cc2c[nH]c3ccccc23)NC(=O)[C@H](CCCNC(=N)N)NC(=O)[C@@H](Cc2ccccc2)NC(=O)[C@H](Cc2c[nH]cn2)NC1=O [copper-64 labelled] | C57 mice, lung | intravenous, 0.37 MBq, 2 h | 0.72 ± 0.17 %ID/g

For quick reference, copied from above:
Structure (SMILES) | test system | conditions | tissue uptake
CC(C)C[C@@H](NC(=O)[C@@H](CCC(=O)O)NC(=O)[C@@H](CC(C)C)NC(=O)[C@@H](CC(C)C)NC(=O)[C@@H](CC(C)C)NC(=O)[C@H](NC(=O)[C@@H](CCC(=O)O)NC(=O)[C@H](NC(=O)[C@H]1CCCN1C(=O)[C@@H](Cc1ccccc1)NC(=O)[C@@H](CC(C)C)NC(=O)[C@@H](Cc1c[nH]c2ccccc12)NC(=O)[C@@H](CCC(=O)O)NC(=O)[C@@H](CC(C)C)NC(=O)[C@@H](Cc1ccc(O)cc1)NC(=O)[C@@H](CCCNC(=N)N)NC(=O)[C@@H](C)NC(=O)[C@@H](Cc1c[nH]c2ccccc12)NC(=O)[C@H]1CCCN1C(=O)[C@@H](CC(N)=O)NC(=O)[C@@H](CCC(N)=O)NC(=O)[C@@H](CCC(=O)O)NC(=O)[C@@H](CCC(=O)O)NC(=O)[C@@H](CSC1CC(=O)N(CCNC(=O)CN2CCN(CC(=O)O)CCN(CC(=O)O)CC2)C1=O)NC(=O)[C@@H](C)N)[C@H](C)O)[C@H](C)O)C(=O)O (stereo partly shown) [fluorine-18 labelled] | BALB/c mice, female, 4T1 orthotopic tumour, small intestine | intravenous, 4 h | 0.91 ± 0.03 %ID/g
CCCC[C@H](NC(=O)CNC(=O)CNC(=O)CN1CCN(CC(=O)O)CCN(CC(=O)O)CC1)C(=O)N[C@H]1CC(=O)NCCCC[C@@H](C(N)=O)NC(=O)[C@H](Cc2c[nH]c3ccccc23)NC(=O)[C@H](CCCNC(=N)N)NC(=O)[C@@H](Cc2ccccc2)NC(=O)[C@H](Cc2c[nH]cn2)NC1=O [technetium-99m labelled] | C57 mice, intestines | intravenous, 0.037 MBq, 24 h | 0.4 ± 0.4 %ID
